# Experimental data from different studies.
# A part holds a random share of what one study measured. Substitutions count along the parent as printed.

# Study 1
# Target: CCND2, cyclin fold, Cln2 fusion (human)
# Method: yeast growth competition, sequencing
# Medium: yeast
# Setting: weak parent motif
# Reference: not given
# Direction: higher = stronger binding
# Starting sequence: PKN2 docking peptide (human); VSAVQKLDFSDTM
Change,normalised enrichment score
VSALQKLDFSDTM [V4L],0.492
VSAVQKLDFSDEM [T12E],1.06
TSAVQKLDFSDTM [V1T],0.715
VSAVQKLDFSDNM [T12N],0.604
VSAVQKLDDSDTM [F9D],0.0937
VSAVQKLDFSWTM [D11W],0.45
VSAVQKLDYSDTM [F9Y],0.264
VSAVQKLDFSDGM [T12G],0.695

# Study 2
# Target: RNA binding protein fox-1 homolog 2, RRM domain, GST-SBP tag (RBFOX2, Homo sapiens, UniProt O43251-10, residues 100-194)
# Method: RNA Bind-n-Seq
# Molecule type: RNA
# Medium: in vitro
# Tested at: 365 nM
# Setting: natural RNA segment, single round, ends assumed
# Reference: no-protein control
# Direction: higher = stronger binding
# Target sequence (chain): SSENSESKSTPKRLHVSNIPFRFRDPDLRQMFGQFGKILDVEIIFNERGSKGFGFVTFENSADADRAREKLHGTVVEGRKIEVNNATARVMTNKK
Oligonucleotide,RBNS enrichment (R)
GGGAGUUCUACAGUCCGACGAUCACUCCAGCUGGGGGCGCCACAGCACCCACCACCUGCCGCCUUCAGACUCUCGGGGCUGGUGCCAGUGCCCCAGGGGCCUCCUGGGCCACGGGCUGGAGGGGCUGCCCAGGUGGAAUUCUCGGGUGCCAA,0.441
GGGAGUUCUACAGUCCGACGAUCCUCCAUUUGCAGCAUGGUUCCCAUGCCAUUGGCGCACCAGACAGAAAAGGGAGAGAGAAAAGACAGGAACUGAUGAGAUAGUUUGAAAGCUGAAGGAGUUCUGAGUUUGUUGGAAUUCUCGGGUGCCAA,0.661
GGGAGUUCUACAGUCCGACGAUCUUUUGUGUGUGUGUGUGUGGGCAUCUCGCUGUAAUUGGUGCUGAAAAGUUAUUUGUGUUCAACUGACAUUUAACGCUCUCUCCCCAACUUCCUCCCGGCCCUGUGGGCCAUGGAAUUCUCGGGUGCCAA,1.54
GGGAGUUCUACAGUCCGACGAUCUAUUAUGAGAAUGUUUUACAUUUAAACUGGUUUAGCACCUUUUAAGUUUAAAGCCCAUAGCUUCUUAUUACUAGUGACCUAGGGAAUUGUUAUUAACAUUAAGAGAUAUAUGGAAUUCUCGGGUGCCAA,0.491
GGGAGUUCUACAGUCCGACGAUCGAAAAUGAAACAUUCUUUUUCUGGAGAAGUUUACAUGCCCAUUGUUGGUCACCUCUUUACUGUAAAUACUAUUGAAAAAAGGAGCGUAGCAUUUGCAUAGCAGGGAUUGUUGGAAUUCUCGGGUGCCAA,0.448
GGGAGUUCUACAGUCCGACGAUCGAAAGAGAGGCCUUAGGAUUCUCCUCUCUCUAGGUGCUGAGCCCUCACCUCCCUGUUCCAGGCUGAGAACUCAAAUGGUUACCCUGCUUCUUCCUACAAUGCUGUGUGAUUGGAAUUCUCGGGUGCCAA,0.674
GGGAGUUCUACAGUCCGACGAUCUAGCACUAAAAAGAUUGAGUUAAAAAUAAGAUUUAAAAAAUAUAUAUUGAUUAAAAUGUACCACUAGAAAGGUAUUACAUGUGUAUAAGUAUGGGUAAAAAGGCAAGUCAUGGAAUUCUCGGGUGCCAA,0.772
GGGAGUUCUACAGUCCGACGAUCCAGUUCGGGUGUUCCAUUGCACCCCUGUGCAGAUCUUUCCAGACUUGGCAACUUUACUUGGCUGAAUGAACUCCAAUCGGAAACAAUUGCUUCAAGCCAGUUUUUCCUUUUGGAAUUCUCGGGUGCCAA,0.318

# Study 3
# Target: Interferon regulatory factor 3, full length, phosphomimetic (IRF3, Homo sapiens, UniProt Q14653, residues 1-427, S386D/S396D/S398D/S402D/T404D/S405D)
# Method: protein-binding microarray
# Molecule type: double-stranded DNA, one strand shown
# Medium: in vitro
# Tested at: 2540 nM top
# Setting: 60-bp whole probe
# With: salmon DNA 0.4 mg/ml
# Reference: random background probes
# Direction: higher = stronger binding
# All sequences stand within: GCCTAGCAC … GTCTTGATTCGCTTGACGCTGCTG
# Target sequence (chain): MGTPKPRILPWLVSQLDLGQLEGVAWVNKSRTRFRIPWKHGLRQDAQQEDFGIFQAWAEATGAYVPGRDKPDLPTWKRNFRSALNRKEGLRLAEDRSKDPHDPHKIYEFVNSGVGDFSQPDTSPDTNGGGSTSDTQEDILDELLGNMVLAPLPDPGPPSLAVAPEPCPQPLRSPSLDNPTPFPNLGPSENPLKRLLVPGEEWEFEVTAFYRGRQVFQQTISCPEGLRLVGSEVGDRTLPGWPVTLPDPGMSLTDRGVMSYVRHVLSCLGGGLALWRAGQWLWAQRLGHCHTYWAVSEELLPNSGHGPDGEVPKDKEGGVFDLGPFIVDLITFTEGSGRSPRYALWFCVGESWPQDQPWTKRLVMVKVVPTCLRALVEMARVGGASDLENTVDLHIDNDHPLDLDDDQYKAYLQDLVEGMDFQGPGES
Oligonucleotide,fitted relative affinity
GACGGTATCGGTATCGGGAAGTGCTAG,4.58 z-score
GACGGTTTCGACCCTGGGGACGTGCTA,2.35 z-score
GCCGGACTGGACACTGGGGACGTGCTA,-0.187 z-score
GACGGTATCGTACTGCTGACGTGCTAG,1.48 z-score
CTTGAACCTGGGAGGTGGAGGTGCTAG,-0.776 z-score
GACGATCTCGGTCTCGAGACGTGCTAG,0.735 z-score
TTAGGACTGGACTTTTGGTTAGTGCTA,-0.601 z-score
TCAGTTTTTGCTTTCTTACTGTGCTAG,2.16 z-score

# Further values, each from its own experiment
SMILES,species,medium,tested at,time,endpoint,value
CCOc1cc(=O)n2c(c1C(=O)Nc1cccc(C(=O)OC)c1)CCCC2,human,microsomes or S9,2 µM,0.5 h,remaining compound,3.65%
